# Published values collected from several papers.
Compound,organism,test,system,conditions,MIC
CCOC(=O)CNC(=O)CO/N=c1\cc2n(-c3ccc(Cl)cc3)c3ccccc3nc-2cc1Nc1ccc(Cl)cc1,Neisseria gonorrhoeae,bacterial growth,"1130991, multidrug-resistant",24 h,> 30 µM
N=C(N)NCCC[C@H](NC(=O)[C@H](Cc1c[nH]c2ccccc12)NC(=O)[C@H](CCCNC(=N)N)NC(=O)[C@H](Cc1c[nH]c2ccccc12)NC(=O)[C@H](Cc1c[nH]c2ccccc12)NC(=O)[C@H](Cc1c[nH]c2ccccc12)NC(=O)[C@H](CCCNC(=N)N)NC(=O)[C@H](Cc1c[nH]c2ccccc12)NC(=O)[C@@H](N)CCCNC(=N)N)C(=O)N[C@@H](Cc1c[nH]c2ccccc12)C(N)=O,Candida albicans,broth microdilution,"CGMCC 2.209, RPMI 1640-MOPS","48 h, 30 °C, together with: NH4Cl 6 µM",8 µM
C=CCO/N=c1\cc2n(-c3ccc(Cl)cc3)c3ccccc3nc-2cc1Nc1ccc(Cl)cc1,Neisseria gonorrhoeae,bacterial growth,"700825, streptomycin-resistant",24 h,> 30 µM
CC1(C)SC2C(NC(=O)C(NC(=O)C3=C(O)C(c4ccccc4)NC3=O)c3ccccc3)C(=O)N2C1C(=O)O (stereo not drawn),Escherichia coli,broth microdilution,"isolate IU, CTX-M-14, TEM-1",together with: clavulanic acid 6 µg/mL,> 200 µg/mL
CC[C@H](C)C[C@H](C)CCCCCCCCC(=O)N[C@H]1C[C@@H](O)[C@@H](NCCN)NC(=O)[C@@H]2[C@@H](O)CCN2C(=O)[C@H]([C@H](O)CCN)NC(=O)[C@H]([C@H](O)[C@@H](O)c2ccc(O)cc2)NC(=O)[C@@H]2C[C@@H](O)CN2C(=O)[C@H]([C@@H](C)O)NC1=O,Candida tropicalis,EUCAST broth microdilution,"clinical isolate, RPMI 1640 with MOPS","pH 7.0, 37 °C, 2% glucose",0.25 µg/mL
CC1(C)SC2C(NC(=O)C(NC(=O)C3=C(O)C(Cc4ccc(F)cc4)NC3=O)c3ccccc3)C(=O)N2C1C(=O)O (stereo not drawn),Escherichia coli,broth microdilution,Keio mutant JW2142-1,,25 µg/mL
CC[C@H](C)[C@H](NC(=O)[C@H](CCCCN)NC(=O)[C@@H](NC(=O)[C@H](Cc1ccc(O)cc1)NC(=O)[C@H](CCCCN)NC(=O)[C@H](CCCCN)NC(=O)CNC(=O)[C@H](CCCCN)NC(=O)[C@@H](NC(=O)[C@H](C)NC(=O)[C@H](CC(C)C)NC(=O)[C@H](Cc1c[nH]c2ccccc12)NC(=O)CNC(=O)[C@@H](NC(=O)[C@H](Cc1ccccc1)NC(=O)[C@H](CCCCN)NC(=O)[C@H](CC(C)C)NC(=O)[C@H](Cc1ccccc1)NC(=O)[C@H](C)NC(=O)CNC(=O)[C@@H](N)CCSC)C(C)C)[C@@H](C)O)C(C)C)C(=O)N[C@@H](C)C(=O)N[C@@H](Cc1c[nH]c2ccccc12)C(=O)N[C@@H](CC(=O)O)C(=O)N[C@@H](Cc1c[nH]cn1)C(=O)N[C@@H](CCCCN)C(=O)NCC(=O)N[C@H](C(=O)N[C@H](C(=O)N[C@@H](CCSC)C(=O)N[C@@H](CCCCN)C(=O)N[C@@H](Cc1c[nH]c2ccccc12)C(=O)N[C@@H](CC(C)C)C(=O)N[C@@H](CC(N)=O)C(=O)N[C@@H](C)C(=O)NCC(=O)N[C@@H](CCC(N)=O)C(=O)N[C@H](C(=O)N[C@@H](Cc1ccccc1)C(=O)N[C@H](C(=O)N[C@@H](Cc1c[nH]c2ccccc12)C(=O)N[C@H](C(=O)N[C@@H](Cc1ccc(O)cc1)C(=O)N[C@@H](CCC(=O)O)C(=O)N[C@@H](CCC(N)=O)C(=O)N[C@H](C(=O)N[C@@H](CCCCN)C(=O)N[C@@H](CCCCN)C(=O)N[C@@H](CC(C)C)C(=O)N[C@@H](Cc1c[nH]c2ccccc12)C(=O)N[C@H](C(=O)O)[C@@H](C)O)[C@@H](C)CC)C(C)C)[C@@H](C)O)[C@@H](C)O)[C@@H](C)CC)[C@@H](C)O,Paenibacillus polymyxa,broth microdilution,,37 °C,10.4 µg/mL
CC(C)C[C@@H](NC(=O)[C@H](C)NC(=O)CNC(=O)[C@@H](NC=O)C(C)C)C(=O)N[C@@H](C)C(=O)N[C@@H](C(=O)N[C@H](C(=O)N[C@@H](C(=O)N[C@@H](Cc1c[nH]c2ccccc12)C(=O)N[C@H](CC(C)C)C(=O)N[C@@H](Cc1cccc2[nH]ccc12)C(=O)N[C@H](CC(C)C)C(=O)N[C@@H](Cc1c[nH]c2ccccc12)C(=O)N[C@H](CC(C)C)C(=O)N[C@@H](Cc1c[nH]c2ccccc12)C(=O)NCCO)C(C)C)C(C)C)C(C)C,Streptococcus agalactiae,broth microdilution,JCM 5671,,0.53 µM
N=C(N)NCCC[C@H](NC(=O)[C@H](Cc1c[nH]c2ccccc12)NC(=O)[C@H](CCCNC(=N)N)NC(=O)[C@H](Cc1c[nH]c2ccccc12)NC(=O)[C@H](Cc1c[nH]c2ccccc12)NC(=O)[C@H](Cc1c[nH]c2ccccc12)NC(=O)[C@H](CCCNC(=N)N)NC(=O)[C@H](Cc1c[nH]c2ccccc12)NC(=O)[C@@H](N)CCCNC(=N)N)C(=O)N[C@@H](Cc1ccccc1)C(N)=O,Candida albicans,,CGMCC 2.209,no added salts,8 µM
C[C@@H](O)[C@H]1C(=O)N2C(C(=O)O)=C(SCCN=CN)C[C@H]12,Klebsiella pneumoniae,,K2,"at emergence of KPC-137, together with: ceftazidime-avibactam 4/1",64 µg/mL
CC(C)[C@H](NC(=O)[C@H](CCCNC(=N)N)NC(=O)[C@H](Cc1c[nH]c2ccccc12)NC(=O)[C@H](CCCNC(=N)N)NC(=O)[C@H](Cc1c[nH]c2ccccc12)NC(=O)[C@H](Cc1c[nH]c2ccccc12)NC(=O)[C@H](Cc1c[nH]c2ccccc12)NC(=O)[C@H](CCCNC(=N)N)NC(=O)[C@H](Cc1c[nH]c2ccccc12)NC(=O)[C@@H](N)CCCNC(=N)N)C(N)=O,Candida albicans,broth microdilution,"CGMCC 2.209, RPMI 1640-MOPS","48 h, 30 °C, together with: FeCl3 4 µM",32 µM
CC1(C)SC2C(NC(=O)C(NC(=O)C3=C(O)C(Cc4ccccc4)NC3=O)c3ccccc3)C(=O)N2C1C(=O)O (stereo not drawn),Escherichia coli,,"ATCC 35218, low-level TEM-1",without clavulanic acid,> 200 µg/mL
CSCC[C@H](NC(=O)[C@H](CCCCN)NC(=O)[C@H](CCSC)NC(=O)[C@H](CCCCN)NC(=O)[C@H](CC(C)C)NC(=O)[C@H](CC(C)C)NC(=O)[C@H](CCCNC(=N)N)NC(=O)[C@H](CC(=O)O)NC(=O)[C@H](CCCCN)NC(=O)[C@H](Cc1c[nH]c2ccccc12)NC(=O)[C@H](Cc1ccc(O)cc1)NC(=O)[C@H](Cc1ccccc1)NC(=O)[C@H](CCCNC(=N)N)NC(=O)[C@@H]1CCCN1C(=O)[C@@H](NC(=O)[C@H](CCCNC(=N)N)NC(=O)[C@@H](N)CO)C(C)C)C(=O)N[C@@H](C)C(=O)O,Micrococcus luteus,,NCTC 2665,,100 µg/mL
CC(=O)N1CCN(c2ccc(OCC3COC(Cn4ccnc4)(c4ccc(Cl)cc4Cl)O3)cc2)CC1 (stereo not drawn),Candida albicans,broth microdilution,"56467, RPMI 1640-MOPS","48 h, 30 °C",> 64 µM
Clc1ccc(Nc2cc3nc4ccccc4n(-c4ccc(Cl)cc4)c-3c/c2=N\OCc2ccccc2)cc1,Neisseria gonorrhoeae,bacterial growth,"1130991, multidrug-resistant",24 h,> 30 µM
CCCCCCCCCC(=O)N[C@@H](Cc1c[nH]c2ccccc12)C(=O)N[C@H](CC(N)=O)C(=O)N[C@@H](CC(=O)O)C(=O)N[C@@H]1C(=O)NCC(=O)N[C@@H](CCCN)C(=O)N[C@@H](CC(=O)O)C(=O)N[C@H](C)C(=O)N[C@@H](CC(=O)O)C(=O)NCC(=O)N[C@H](CO)C(=O)N[C@@H]([C@H](C)CC(=O)O)C(=O)N[C@@H](CC(=O)c2ccccc2N)C(=O)O[C@@H]1C,Micrococcus luteus,broth microdilution,ATCC 7468,24 h,15.4 µM
CC(C)(C)OCC1NC(=O)C(C(=O)NC(C(=O)NC2C(=O)N3C2SC(C)(C)C3C(=O)O)c2ccccc2)=C1O (stereo not drawn),Escherichia coli,broth microdilution,"isolate IU 356 A, KPC-3, VIM-1, TEM",together with: clavulanic acid 6 µg/mL,> 200 µg/mL
C[C@H](NC(=O)[C@H](CCCNC(=N)N)NC(=O)[C@H](Cc1c[nH]c2ccccc12)NC(=O)[C@H](CCCNC(=N)N)NC(=O)[C@H](Cc1c[nH]c2ccccc12)NC(=O)[C@H](Cc1c[nH]c2ccccc12)NC(=O)[C@H](Cc1c[nH]c2ccccc12)NC(=O)[C@H](CCCNC(=N)N)NC(=O)[C@H](Cc1c[nH]c2ccccc12)NC(=O)[C@@H](N)CCCNC(=N)N)C(N)=O,Candida albicans,broth microdilution,"56467, RPMI 1640-MOPS","48 h, 30 °C",8 µM

# For quick reference, copied from above:
Compound,organism,test,system,conditions,MIC
C[C@@H](O)[C@H]1C(=O)N2C(C(=O)O)=C(SCCN=CN)C[C@H]12,Klebsiella pneumoniae,,K2,"at emergence of KPC-137, together with: ceftazidime-avibactam 4/1",64 µg/mL
CC1(C)SC2C(NC(=O)C(NC(=O)C3=C(O)C(c4ccccc4)NC3=O)c3ccccc3)C(=O)N2C1C(=O)O (stereo not drawn),Escherichia coli,broth microdilution,"isolate IU, CTX-M-14, TEM-1",together with: clavulanic acid 6 µg/mL,> 200 µg/mL
